Assay results of several laboratories.
Parts stem from different laboratories: compare values within a part only. Positions count from the first letter of the parent shown.

Sample 1 — technique: RNA Bind-n-Seq; molecule type: RNA; medium: in vitro; tested at: 200 nM; setting: whole 134-nt RNA, ends assumed; with: 150 mM LiCl; baseline: input library; direction: higher = stronger binding; quantity: log2 enrichment; each molecule: 7-deaza-guanosine replaces G
Target: Ras GTPase-activating protein-binding protein 1, full length (G3BP1, Homo sapiens, UniProt Q13283)
Sequence of UniProt Q13283 (whole entry, looked up): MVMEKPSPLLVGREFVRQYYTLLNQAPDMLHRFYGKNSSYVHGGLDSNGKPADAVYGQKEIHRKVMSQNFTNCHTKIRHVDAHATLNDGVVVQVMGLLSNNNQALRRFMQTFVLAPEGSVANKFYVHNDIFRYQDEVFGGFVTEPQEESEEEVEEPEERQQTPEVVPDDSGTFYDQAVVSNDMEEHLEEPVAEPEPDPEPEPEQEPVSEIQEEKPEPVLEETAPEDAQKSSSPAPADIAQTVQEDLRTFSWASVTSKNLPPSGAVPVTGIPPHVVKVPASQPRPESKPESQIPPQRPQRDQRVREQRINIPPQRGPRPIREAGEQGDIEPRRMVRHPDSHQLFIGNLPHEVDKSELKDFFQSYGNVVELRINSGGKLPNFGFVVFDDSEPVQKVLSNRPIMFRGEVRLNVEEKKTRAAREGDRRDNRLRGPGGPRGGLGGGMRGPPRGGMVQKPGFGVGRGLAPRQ
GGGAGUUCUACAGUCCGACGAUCCCUGUGCUACACAUCGUAUGUACCGAAUCGGGGCCCCCCGGGGCCCCCCGGCCCCCCGGGAAAGUAUUAUGUUACGCCGUUCGGAUCUGCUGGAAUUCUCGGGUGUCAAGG: -1.56
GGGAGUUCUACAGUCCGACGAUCGCAGGAAGUAAAAACCAAUGGAAAUGCUUCGGAUAGUGGCAGGGGUGGGGGUUGCUAAGGAAAGGGUGGGAUGGGAGUGGGUAAAGAGUUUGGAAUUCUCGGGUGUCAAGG: 0.071
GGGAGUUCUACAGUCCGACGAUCUCCUGUGCUACACAUCGUAUGUACCGAAUCGGGGCCCCCGGGGCCCCCGGGCCCCCGGGAAAGUAUUAUGUUACGCCGUUCGGAUCUGCAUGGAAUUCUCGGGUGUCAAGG: -1.49
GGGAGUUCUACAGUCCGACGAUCCAAGUCCUGUGCUACACAUCGUAUGUACCGAAUCGGCCCCGGCCCCGGCCCCGGGGAAAGUAUUAUGUUACGCCGUUCGGAUCUGCACUUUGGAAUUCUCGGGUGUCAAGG: -0.182
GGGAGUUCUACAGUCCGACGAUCUGGCCCUGGUGGCAUGCGGGGAGGAAGAGGUGACCUCAUGGAUCGUGGUGGUCCCGGUGGAAUGUUCAGAGGUGGCCGUGGUGGAGACAGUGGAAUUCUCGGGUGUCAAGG: 0.371
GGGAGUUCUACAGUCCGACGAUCGUCCUGUGCUACACAUCGUAUGUACCGAAUCAAAUUUAAACCCCCCCAAACCCCCAAAAAAGUAUUAUGUUACGCCGUUCGGAUCUGCACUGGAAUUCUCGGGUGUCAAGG: 0.416
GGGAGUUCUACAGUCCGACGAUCAAGUCCUGUGCUACACAUCGUAUGUACCGAAUCGGUUUUUGGUUUUUGGUUUUUGGGAAAGUAUUAUGUUACGCCGUUCGGAUCUGCACUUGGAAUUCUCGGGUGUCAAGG: -0.499
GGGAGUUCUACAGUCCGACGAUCGCAGGAAGUAAAAACAAAUGGAAAUGCUUCGGAUAGUGGCAGGGGUGGGGGUUGCUAAGGAAACGGUGGGAUGGGAGUGGGUAAAGAGUUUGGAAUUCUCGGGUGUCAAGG: 0.0325

Sample 2 — technique: RNAcompete; molecule type: RNA; medium: in vitro; tested at: 20 nM; setting: 7-mer, probes averaged, single round; baseline: mean of 7-mers; direction: higher = stronger binding; quantity: 7-mer Z-score
Target: PABPC1L2, full length, GST fusion (mouse, UniProt A0ABA7IW68)
Residues (chain): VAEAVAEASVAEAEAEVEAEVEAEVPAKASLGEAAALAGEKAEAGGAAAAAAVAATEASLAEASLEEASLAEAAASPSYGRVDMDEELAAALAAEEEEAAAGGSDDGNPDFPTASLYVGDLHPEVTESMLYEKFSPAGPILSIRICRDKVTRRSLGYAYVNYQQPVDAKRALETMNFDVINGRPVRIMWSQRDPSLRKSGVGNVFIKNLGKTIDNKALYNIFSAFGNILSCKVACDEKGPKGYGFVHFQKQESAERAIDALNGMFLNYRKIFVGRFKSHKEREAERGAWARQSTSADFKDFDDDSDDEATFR
CCCCCCU: -0.628
GUCAACC: -0.166
GUAGUGC: -0.177
AUUUACA: 0.18
UGCACUG: -0.173
GAACCCU: -0.282
GCGGAAC: 0.202
CACCGGG: 0.102
UCGAAAU: -0.112
ACAAGCC: -0.0573
GCGUCUA: -0.175
GCCUUUA: -0.151
UAUCCUU: -0.206
CAAUGGG: 0.0859
GAACCAG: -0.112
UACAUUG: -0.195
GCACCUA: -0.191
CAUCGCG: -0.104
AACCUCC: -0.217
GUUGAUA: -0.104
CGCUGGA: -0.0989

Sample 3 — technique: protein-binding microarray; molecule type: double-stranded DNA, one strand shown; medium: in vitro; tested at: 0.8 µM; setting: whole 60-bp probe, no competitor; direction: higher = stronger binding; quantity: fluorescence intensity
Target: Centromere-binding protein 1, full length, N-terminal tag (CBF1, Saccharomyces cerevisiae, UniProt P17106, residues 1-351)
Sequence of UniProt P17106 (whole entry, looked up): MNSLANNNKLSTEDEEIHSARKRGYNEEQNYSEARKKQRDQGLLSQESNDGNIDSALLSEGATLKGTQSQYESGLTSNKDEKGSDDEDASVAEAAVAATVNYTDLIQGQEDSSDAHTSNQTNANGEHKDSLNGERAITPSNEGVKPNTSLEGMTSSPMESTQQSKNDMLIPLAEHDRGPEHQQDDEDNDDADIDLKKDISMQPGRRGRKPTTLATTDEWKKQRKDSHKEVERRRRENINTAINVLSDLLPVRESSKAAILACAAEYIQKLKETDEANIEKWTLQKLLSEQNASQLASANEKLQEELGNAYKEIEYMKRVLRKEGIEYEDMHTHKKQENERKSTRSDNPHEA
GAATAGGACTCAACGTGACTGTCAGTCTTCAGTTAGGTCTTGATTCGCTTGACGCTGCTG: 1910 a.u.
CTAGTACTTGTACATCAGACAAGGATGAATTAATTCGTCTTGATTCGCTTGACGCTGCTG: 491 a.u.
TGTACGAAGCTATTGCATGTGATTATAGTAGTTAGGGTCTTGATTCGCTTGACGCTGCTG: 1600 a.u.
GAACTGCTCGATAGACCGATCACGTTTAATTTTTAGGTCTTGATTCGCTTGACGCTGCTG: 2860 a.u.
CCTAACTACTATACCAACGTGACATAGCTTCGTACAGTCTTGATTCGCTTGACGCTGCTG: 1620 a.u.
CTACCAACAAATCATCAGGTTAGTAGAATAATGTTCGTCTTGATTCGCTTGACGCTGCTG: 519 a.u.
GAACCAGTGGCACACACGTGAACTACATCACTCTAGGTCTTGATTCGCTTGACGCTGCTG: 1830 a.u.
GAAGTGTGTGTGTGATATGTGACGTGTATACGTTAGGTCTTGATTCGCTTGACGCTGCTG: 639 a.u.
TGTACGAAGCTATGGCACGCGCATATAGTAGTTAGGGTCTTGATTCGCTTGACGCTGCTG: 1050 a.u.
GAAAAATCATTATGGTGCATGATGCATCACTTATAGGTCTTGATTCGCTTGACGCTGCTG: 516 a.u.
GAAAGATAATGCAACTCCACCACCAGCGCTCTATAGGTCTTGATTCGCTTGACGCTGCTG: 485 a.u.
TGTACGAAGCTATTAATCGTGCTTATAGTAGTTAGGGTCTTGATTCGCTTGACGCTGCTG: 518 a.u.
GAATGTGGAGCAAGCCACGCCATGTGATTAACCTAGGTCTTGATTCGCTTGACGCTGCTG: 2540 a.u.
CTATGAATAGAACGTGACTCAACAGAAAGTCACTTCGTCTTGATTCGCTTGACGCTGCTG: 3860 a.u.
GAATGTTGTAAAGATCATCAGAAAAAGAGTTAATAGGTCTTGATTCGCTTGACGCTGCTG: 516 a.u.
GAAGTATATCGTCGTCACCGACGTAAGGTTTTTTAGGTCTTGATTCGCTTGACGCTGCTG: 495 a.u.
CTACAGATGATTTTTCACATGATTTTTGTTAGATTCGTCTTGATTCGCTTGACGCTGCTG: 754 a.u.
CTACCATAACCAGATCGTCTGATGCTCTTTTTGTTCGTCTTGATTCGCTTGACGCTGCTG: 532 a.u.
CTACCGGCCTCGTTATTCGTGATGCCTACTTAATTCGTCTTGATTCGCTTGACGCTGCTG: 507 a.u.

Sample 4 — target: CCNF, cyclin fold, Cln2 fusion (human); technique: yeast growth competition, sequencing; medium: yeast; setting: strong parent motif; baseline: not given; direction: higher = stronger binding; quantity: normalised enrichment score
Starting sequence: CDKN1B docking peptide (human); PSACRNLFGPVDH
G9C: 3.16
H13E: 6.67
P10G: 7.3
R5I: -0.233
L7V: 1.3
P1K: 9
F8M: 0.893
F8Q: 0.111
D12Y: 7.38
S2H: 6.9
V11T: 6.71
S2G: 6.69
P10W: 7.99
F8T: 0.481
P10V: 6.54
C4K: 7.28
L7Y: 0.365
P1D: 3.4
F8A: -0.192
P1E: 5.13
V11N: 6.52
L7T: -0.144
F8H: 0.509
F8W: 1.43
D12W: 7.68

Some of these lines once more (sample 3):
CTACCAACAAATCATCAGGTTAGTAGAATAATGTTCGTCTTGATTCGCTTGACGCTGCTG: 519 a.u.
GAACCAGTGGCACACACGTGAACTACATCACTCTAGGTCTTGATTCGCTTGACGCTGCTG: 1830 a.u.
GAAGTGTGTGTGTGATATGTGACGTGTATACGTTAGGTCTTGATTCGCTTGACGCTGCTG: 639 a.u.
TGTACGAAGCTATGGCACGCGCATATAGTAGTTAGGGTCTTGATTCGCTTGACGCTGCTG: 1050 a.u.
GAAAAATCATTATGGTGCATGATGCATCACTTATAGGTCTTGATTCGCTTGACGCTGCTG: 516 a.u.
GAAAGATAATGCAACTCCACCACCAGCGCTCTATAGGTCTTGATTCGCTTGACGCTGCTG: 485 a.u.
TGTACGAAGCTATTAATCGTGCTTATAGTAGTTAGGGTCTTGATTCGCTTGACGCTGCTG: 518 a.u.
GAATGTGGAGCAAGCCACGCCATGTGATTAACCTAGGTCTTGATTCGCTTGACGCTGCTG: 2540 a.u.
CTATGAATAGAACGTGACTCAACAGAAAGTCACTTCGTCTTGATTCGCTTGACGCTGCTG: 3860 a.u.
GAATGTTGTAAAGATCATCAGAAAAAGAGTTAATAGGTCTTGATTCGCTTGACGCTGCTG: 516 a.u.
